Experimental data from different studies.
Several values in a cell are separate wells, animals, samples, runs or records. ± gives the spread as reported.
Tripartite terminase subunit 3 C-terminal nuclease domain: Tripartite terminase subunit 3, C-terminal nuclease domain (Human betaherpesvirus 5, UniProt P16732)
UniProt P16732, sequence (whole entry, looked up): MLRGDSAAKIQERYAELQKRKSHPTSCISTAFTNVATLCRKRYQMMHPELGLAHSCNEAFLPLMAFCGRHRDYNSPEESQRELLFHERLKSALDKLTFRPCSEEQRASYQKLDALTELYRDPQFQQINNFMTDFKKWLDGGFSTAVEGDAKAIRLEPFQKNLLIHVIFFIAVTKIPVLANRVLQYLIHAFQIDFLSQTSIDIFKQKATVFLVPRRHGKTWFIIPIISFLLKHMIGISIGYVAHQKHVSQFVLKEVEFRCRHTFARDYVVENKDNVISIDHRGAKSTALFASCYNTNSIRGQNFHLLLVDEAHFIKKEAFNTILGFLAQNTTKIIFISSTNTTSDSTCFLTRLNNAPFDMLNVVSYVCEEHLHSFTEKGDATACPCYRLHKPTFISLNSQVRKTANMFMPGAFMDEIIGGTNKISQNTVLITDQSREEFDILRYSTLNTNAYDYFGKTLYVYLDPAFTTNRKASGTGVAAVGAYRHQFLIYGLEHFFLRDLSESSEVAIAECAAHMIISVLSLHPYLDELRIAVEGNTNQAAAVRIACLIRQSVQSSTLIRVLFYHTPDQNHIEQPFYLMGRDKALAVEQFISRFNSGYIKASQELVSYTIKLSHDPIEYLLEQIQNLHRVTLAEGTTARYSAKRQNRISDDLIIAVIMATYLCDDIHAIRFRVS
DDB1/DCAF12: DDB1/DCAF12 (Homo sapiens, UniProt Q16531+Q5T6F0)
UniProt Q5T6F0, sequence (whole entry, looked up): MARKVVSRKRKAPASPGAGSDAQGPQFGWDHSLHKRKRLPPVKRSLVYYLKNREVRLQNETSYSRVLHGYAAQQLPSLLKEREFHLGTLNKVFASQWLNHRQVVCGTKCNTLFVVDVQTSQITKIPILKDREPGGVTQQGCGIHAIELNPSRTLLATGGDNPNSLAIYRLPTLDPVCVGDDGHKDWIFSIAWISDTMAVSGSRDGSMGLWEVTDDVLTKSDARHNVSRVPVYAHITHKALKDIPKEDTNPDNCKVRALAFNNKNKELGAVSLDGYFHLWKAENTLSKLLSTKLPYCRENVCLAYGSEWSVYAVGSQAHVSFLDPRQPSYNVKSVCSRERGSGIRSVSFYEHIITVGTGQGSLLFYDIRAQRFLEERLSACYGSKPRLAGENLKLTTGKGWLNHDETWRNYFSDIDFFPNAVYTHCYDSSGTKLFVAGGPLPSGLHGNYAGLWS
UniProt Q16531, sequence (whole entry, looked up): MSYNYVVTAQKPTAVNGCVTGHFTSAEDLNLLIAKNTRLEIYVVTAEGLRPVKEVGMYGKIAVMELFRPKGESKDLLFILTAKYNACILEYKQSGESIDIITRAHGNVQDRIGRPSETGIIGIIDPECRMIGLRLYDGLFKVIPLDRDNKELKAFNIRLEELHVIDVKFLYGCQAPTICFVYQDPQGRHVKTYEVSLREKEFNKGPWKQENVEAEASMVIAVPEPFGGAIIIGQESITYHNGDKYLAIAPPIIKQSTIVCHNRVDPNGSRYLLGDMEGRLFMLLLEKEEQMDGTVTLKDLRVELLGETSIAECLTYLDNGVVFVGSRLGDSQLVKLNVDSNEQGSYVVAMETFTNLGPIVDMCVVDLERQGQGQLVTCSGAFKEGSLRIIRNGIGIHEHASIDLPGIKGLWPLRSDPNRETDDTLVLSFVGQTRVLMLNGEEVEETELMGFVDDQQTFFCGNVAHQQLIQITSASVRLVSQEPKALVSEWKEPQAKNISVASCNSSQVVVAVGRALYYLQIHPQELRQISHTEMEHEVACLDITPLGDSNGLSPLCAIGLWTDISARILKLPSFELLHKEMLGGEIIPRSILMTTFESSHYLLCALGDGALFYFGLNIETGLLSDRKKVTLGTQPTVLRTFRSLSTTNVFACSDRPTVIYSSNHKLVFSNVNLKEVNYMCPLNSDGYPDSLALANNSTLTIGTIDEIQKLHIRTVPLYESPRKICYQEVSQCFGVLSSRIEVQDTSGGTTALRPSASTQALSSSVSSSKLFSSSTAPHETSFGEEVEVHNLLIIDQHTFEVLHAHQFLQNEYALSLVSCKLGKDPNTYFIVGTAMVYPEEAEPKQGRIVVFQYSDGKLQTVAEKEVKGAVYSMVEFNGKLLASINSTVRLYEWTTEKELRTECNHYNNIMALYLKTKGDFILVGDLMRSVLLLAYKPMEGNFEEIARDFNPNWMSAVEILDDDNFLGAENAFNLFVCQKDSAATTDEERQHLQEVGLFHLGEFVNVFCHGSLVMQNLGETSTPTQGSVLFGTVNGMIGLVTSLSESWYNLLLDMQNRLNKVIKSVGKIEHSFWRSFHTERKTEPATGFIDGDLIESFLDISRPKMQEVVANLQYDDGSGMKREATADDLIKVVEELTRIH
Genome polyprotein NS2B-NS3 protease: Genome polyprotein, NS2B-NS3 protease (ZIKV, UniProt A0A024B7W1)
UniProt P63096, sequence (whole entry, looked up): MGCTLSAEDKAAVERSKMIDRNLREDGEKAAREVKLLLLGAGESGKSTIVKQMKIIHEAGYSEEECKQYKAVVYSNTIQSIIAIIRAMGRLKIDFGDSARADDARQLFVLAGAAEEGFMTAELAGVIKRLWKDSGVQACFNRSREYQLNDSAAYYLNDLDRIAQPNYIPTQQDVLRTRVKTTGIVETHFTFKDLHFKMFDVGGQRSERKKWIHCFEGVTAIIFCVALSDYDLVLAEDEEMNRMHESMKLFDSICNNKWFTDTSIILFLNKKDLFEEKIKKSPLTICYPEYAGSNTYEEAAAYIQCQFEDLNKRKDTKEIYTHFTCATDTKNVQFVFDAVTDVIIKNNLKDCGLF
UniProt Q96SW2, sequence (whole entry, looked up): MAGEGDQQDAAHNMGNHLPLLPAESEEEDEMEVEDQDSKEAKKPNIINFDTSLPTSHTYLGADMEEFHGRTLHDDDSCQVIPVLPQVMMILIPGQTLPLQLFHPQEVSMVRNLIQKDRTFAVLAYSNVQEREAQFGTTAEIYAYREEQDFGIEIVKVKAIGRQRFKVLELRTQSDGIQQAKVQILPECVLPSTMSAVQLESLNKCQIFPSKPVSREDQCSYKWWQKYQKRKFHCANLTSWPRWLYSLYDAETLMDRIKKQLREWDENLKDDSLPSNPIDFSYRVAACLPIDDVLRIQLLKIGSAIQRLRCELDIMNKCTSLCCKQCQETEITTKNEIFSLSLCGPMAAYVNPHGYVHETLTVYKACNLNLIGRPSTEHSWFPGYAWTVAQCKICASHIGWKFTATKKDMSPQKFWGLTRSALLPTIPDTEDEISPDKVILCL
UniProt O94782, sequence (whole entry, looked up): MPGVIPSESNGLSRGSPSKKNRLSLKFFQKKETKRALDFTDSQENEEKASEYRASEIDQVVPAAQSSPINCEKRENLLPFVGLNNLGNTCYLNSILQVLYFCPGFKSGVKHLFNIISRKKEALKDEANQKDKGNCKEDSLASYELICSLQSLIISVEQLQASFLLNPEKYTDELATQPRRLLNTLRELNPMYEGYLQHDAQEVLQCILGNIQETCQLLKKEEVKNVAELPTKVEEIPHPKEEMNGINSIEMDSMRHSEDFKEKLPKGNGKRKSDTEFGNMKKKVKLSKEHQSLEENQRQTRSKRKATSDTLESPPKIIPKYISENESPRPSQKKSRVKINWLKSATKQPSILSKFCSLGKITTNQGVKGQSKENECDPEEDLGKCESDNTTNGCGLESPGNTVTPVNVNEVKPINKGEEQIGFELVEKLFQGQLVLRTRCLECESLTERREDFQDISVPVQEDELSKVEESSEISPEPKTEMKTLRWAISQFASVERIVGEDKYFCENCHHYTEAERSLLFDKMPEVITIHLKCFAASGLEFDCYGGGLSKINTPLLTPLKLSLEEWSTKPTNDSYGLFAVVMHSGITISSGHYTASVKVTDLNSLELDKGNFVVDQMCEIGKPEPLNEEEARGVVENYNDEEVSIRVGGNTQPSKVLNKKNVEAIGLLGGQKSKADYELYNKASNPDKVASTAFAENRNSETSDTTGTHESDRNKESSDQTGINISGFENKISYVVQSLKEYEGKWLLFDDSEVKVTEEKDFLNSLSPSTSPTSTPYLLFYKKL
UniProt P04150, sequence (whole entry, looked up): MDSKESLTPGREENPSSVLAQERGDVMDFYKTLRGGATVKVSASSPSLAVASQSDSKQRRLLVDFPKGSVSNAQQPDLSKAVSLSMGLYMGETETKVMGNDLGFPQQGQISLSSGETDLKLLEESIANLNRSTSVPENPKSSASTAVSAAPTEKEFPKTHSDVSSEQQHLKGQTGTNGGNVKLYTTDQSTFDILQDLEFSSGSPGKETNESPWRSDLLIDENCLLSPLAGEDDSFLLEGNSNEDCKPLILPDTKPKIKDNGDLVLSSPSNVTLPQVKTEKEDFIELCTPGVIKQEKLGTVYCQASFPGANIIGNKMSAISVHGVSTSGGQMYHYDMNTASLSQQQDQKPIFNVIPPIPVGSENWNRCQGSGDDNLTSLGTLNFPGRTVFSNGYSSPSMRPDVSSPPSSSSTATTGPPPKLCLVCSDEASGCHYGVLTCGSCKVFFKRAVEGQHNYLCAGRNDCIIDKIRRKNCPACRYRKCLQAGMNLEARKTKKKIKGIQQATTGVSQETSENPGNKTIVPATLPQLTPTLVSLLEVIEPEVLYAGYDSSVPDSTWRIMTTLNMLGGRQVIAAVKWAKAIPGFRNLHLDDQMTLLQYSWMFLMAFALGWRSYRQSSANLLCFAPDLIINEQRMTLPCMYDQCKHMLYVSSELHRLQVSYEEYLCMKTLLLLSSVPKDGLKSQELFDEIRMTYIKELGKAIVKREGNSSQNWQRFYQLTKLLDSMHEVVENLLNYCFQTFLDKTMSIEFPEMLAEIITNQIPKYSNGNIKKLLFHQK
UniProt Q9FVC8, sequence (whole entry, looked up): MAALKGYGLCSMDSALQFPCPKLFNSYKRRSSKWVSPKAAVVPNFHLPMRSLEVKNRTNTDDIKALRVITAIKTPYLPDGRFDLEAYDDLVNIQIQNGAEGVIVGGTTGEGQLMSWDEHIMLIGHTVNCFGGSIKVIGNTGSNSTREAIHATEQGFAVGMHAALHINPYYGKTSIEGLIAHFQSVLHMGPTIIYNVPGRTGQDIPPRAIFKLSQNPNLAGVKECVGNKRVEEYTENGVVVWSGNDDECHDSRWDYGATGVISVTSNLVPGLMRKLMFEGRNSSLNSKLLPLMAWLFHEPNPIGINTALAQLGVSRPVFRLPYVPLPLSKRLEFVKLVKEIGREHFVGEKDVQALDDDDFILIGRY

SMILES	tested on	assay	system	conditions	how to read	measurement	value
Cc1c(Cc2cccc(N(C)S(=O)(=O)CCCNCCCCCC(=O)N3CCN(c4nc(N5CCOCC5)nc(-n5c(C(F)F)nc6ccccc65)n4)CC3)c2)c(=O)oc2cc(OC(=O)N(C)C)ccc12	ERK	kinase activity, inhibitor				IC50	> 10 µM
CCOP(=O)(OCC)SCSCC	Acetylcholinesterase (ache, Electrophorus electricus, UniProt O42275)	enzyme activity, inhibitor				IC50	2.6 ± 0.1 µM
O=C1c2ccccc2C(c2ccccc2)C(=O)N1OCc1ccccc1 (stereo not drawn)	Tripartite terminase subunit 3 C-terminal nuclease domain	endonuclease activity, inhibitor		with: dsDNA substrate		IC50	> 20 µM
N=C(N)NCCC[C@H](N)C(=O)N[C@@H](CCCCN)C(=O)N1CCC[C@H]1C(=O)NCC(=O)N[C@@H](CCC(=O)O)C(=O)N[C@@H](CO)C(=O)N[C@@H](CCC(=O)O)C(=O)N[C@@H](CCC(=O)O)C(=O)O	DDB1/DCAF12	binding, TR-FRET competition				IC50	0.771 µM
CC(C)(C)NCc1ccc(Nc2ccnc3cc(Cl)ccc23)cc1O	Vero-E6	CellTiter-Glo ATP		72 h, second round 5-point	relative to: DMSO 0%, hyamine -100%, more negative, more toxic	maximum response	-19.5%
CC[C@H](C)[C@H](NC(=O)[C@@H](N)CC(=O)O)C(=O)N[C@@H](CCCNC(=N)N)C(=O)N[C@@H](CCCCN)C(=O)N1CCC[C@H]1C(=O)NCC(=O)N[C@@H](CCC(=O)O)C(=O)N[C@@H](CO)C(=O)N[C@@H](CCC(=O)O)C(=O)N[C@@H](C)C(=O)O	DDB1/DCAF12	binding, TR-FRET competition				IC50	6.21 µM
C[C@@H]1CC[C@H]2[C@@H](C)C(=O)O[C@@H]3O[C@@]4(C)CC[C@@H]1[C@]32OO4	MT-CYB, bc1 complex (Plasmodium falciparum, UniProt Q02768)	enzyme activity, inhibitor				IC50	> 1 µM
C=CC(O)CO (stereo not drawn)	Cytochrome P450 2E1 (Cyp2e1, Mus musculus, UniProt Q05421)	4-nitrophenol hydroxylation, inhibitor	B6C3F1 mouse, liver microsomes	30 min, with: 4-nitrophenol 50 µM		IC50	1200 µM
Nc1c2c(nc3c1C(c1ccc(Cl)c(Cl)c1)c1ccc(OCC(=O)c4ccccc4)cc1O3)CCCC2 (stereo not drawn)	Amyloid-beta precursor protein (APP, Homo sapiens, UniProt P05067)	Aβ42 self-aggregation, inhibitor, thioflavin T fluorescence				IC50	1.41 µM
COc1cc(OC)cc(C(=O)Nc2nc3nc(C)cc(C)c3s2)c1	Genome polyprotein NS2B-NS3 protease	inhibitor				IC50	134 ± 2 µM
OO	Protein-arginine-phosphatase (ywle, Geobacillus stearothermophilus, UniProt S0F332)	inhibitor				IC50	58.8 ± 2.9 µM
NCCCC[C@H](N)C(=O)N1CCC[C@H]1C(=O)NCC(=O)N[C@@H](CCC(=O)O)C(=O)N[C@@H](CO)C(=O)N[C@@H](CCC(=O)O)C(=O)N[C@@H](CCC(=O)O)C(=O)O	DDB1/DCAF12	binding, TR-FRET competition				IC50	4.96 µM
CCC(C(=O)Nc1cc(NC2CCNC2)ccc1C)n1cc(Br)cc2nc(SCc3ccc(F)cc3)nc1-2 (stereo not drawn)	Ubiquitin carboxyl-terminal hydrolase 1 (USP1, Homo sapiens, UniProt O94782)	enzyme activity				IC50	> 100 µM
NCCCC[C@H](N)C(=O)O	4-hydroxy-tetrahydrodipicolinate synthase 2, chloroplastic (DHDPS2, Arabidopsis thaliana, UniProt Q9FVC8)	inhibitor				IC50	33 ± 2.5 µM
Nc1nc2c(ncn2[C@@H]2O[C@H](COP(=O)(O)OP(O)(O)=S)[C@@H](O)[C@H]2O)c(=O)[nH]1	Guanine nucleotide-binding protein G(i) subunit alpha-1, with Gbeta and Ggamma (GNAI1, Homo sapiens, UniProt P63096)	G protein dissociation, TruPATH BRET		wild-type MOR with Gαi1		IC50	0.0455 µM and 0.0335 µM and 0.0385 µM
Cc1nccc2c1[nH]c1ccccc12	Dual specificity tyrosine-phosphorylation-regulated kinase 1A (Dyrk1a, Rattus norvegicus, UniProt Q63470)	inhibitor				IC50	1.82 ± 0.4 µM
Cc1csc2c(=O)n(O)c(=O)[nH]c12	Tripartite terminase subunit 3 C-terminal nuclease domain	endonuclease activity, inhibitor		with: dsDNA substrate		IC50	0.76 ± 0.04 µM

SMILES	tested on	assay	system	conditions	how to read	measurement	value
Cc1cc(C)c2sc(NC(=O)c3ccco3)nc2n1	Genome polyprotein NS2B-NS3 protease	inhibitor				IC50	63 ± 1 µM
NCCOCC(=O)N1CCC[C@H](C(=O)NCc2nc(-c3ccc(C(F)(F)F)cc3)cs2)C1	20S proteasome (Plasmodium falciparum, UniProt A0A5K1K7U1+Q8I261+Q8IJT1)			Succ-LLVY-AMC 0.5 µM, with: WLW-vs 3 µM		IC50	0.077 µM
CC(C)C[C@H](NC(=O)[C@@H]1CCCN1C(=O)[C@H](C)NC(=O)[C@H](CCC(=O)O)NC(=O)[C@@H](NC(=O)[C@@H](N)CC(C)C)[C@@H](C)O)C(=O)N[C@@H](CC(N)=O)C(=O)O	Protein cereblon, with DDB1 (CRBN, Homo sapiens, UniProt Q96SW2)	binding, ligand, TR-FRET displacement				IC50	3.58 µM
C[C@H]1CN(c2n[nH]c3nc(N[C@H]4CC[C@H](NS(=O)(=O)CCC(F)(F)F)CC4)ncc23)CCO1	Filamin-C (FLNC, Homo sapiens, UniProt Q14315)	biochemical				IC50	≥ 20 µM
O=C(c1ccc(OCCN2CCCCC2)cc1)c1c(-c2ccc(O)cc2)sc2cc(O)ccc12	Phospholipase D2 (Homo sapiens, UniProt O14939)	enzyme activity, inhibitor	human cells			IC50	17.7 µM
CCCN(CCC)CCCNC(=O)C1CCCN(Cc2nc(-c3ccc(Cl)cc3)oc2C)C1 (stereo not drawn)	Vero-E6	CellTiter-Glo ATP		concentration not given, 72 h, retest 8-point duplicates	relative to: DMSO 0%, hyamine -100%, more negative, more toxic	cytotoxicity efficacy	-17.7%
COc1cc(Nc2ncc(F)c(Nc3ccc4c(n3)NC(=O)C(C)(C)O4)n2)cc(OC)c1OC	Neutrophil elastase (ELANE, Homo sapiens, UniProt P08246)	enzyme activity, inhibitor				IC50	> 10 µM
CC[C@H](C)[C@H](NC(=O)[C@H](Cc1ccccc1)NC(=O)[C@H](CCC(=O)O)NC(=O)[C@H](CCCNC(=N)N)NC(=O)[C@H](C)NC(=O)[C@H](C)NC(=O)[C@H](CCC(N)=O)NC(=O)[C@H](CCC(=O)O)NC(=O)[C@H](CCC(=O)O)NC(=O)[C@H](CC(C)C)NC(=O)[C@H](Cc1ccc(O)cc1)NC(=O)[C@H](CO)NC(=O)[C@H](CO)NC(=O)[C@@H](NC(=O)[C@H](CC(=O)O)NC(=O)[C@H](CO)NC(=O)[C@@H](NC(=O)[C@H](Cc1ccccc1)NC(=O)[C@@H](NC(=O)CNC(=O)[C@H](CCC(=O)O)NC(=O)[C@H](C)NC(=O)CCc1c[nH]cn1)[C@@H](C)O)[C@@H](C)O)C(C)C)C(=O)N[C@@H](C)C(=O)N[C@@H](Cc1c[nH]c2ccccc12)C(=O)N[C@@H](CC(C)C)C(=O)N[C@H](C(=O)N[C@@H](CCCNC(=N)N)C(=O)NCC(=O)N[C@@H](CCCNC(=N)N)C(=O)N[C@@H](CCCCNC(=O)COCCOCCNC(=O)COCCOCCNC(=O)CC[C@H](NC(=O)CCCCCCCCCCCCCCCCC(=O)O)C(=O)O)C(=O)NCC(=O)NCC(=O)N[C@@H](CO)C(=O)N[C@@H](CCCCNc1c(NCCCCCN(O)C(=O)CCC(=O)NCCCCCN(O)C(=O)CCC(=O)NCCCCCN(O)C(C)=O)c(=O)c1=O)C(=O)O)C(C)C [zirconium-89 labelled]			rat, blood	iv, 3 nmol/kg, 72 h, ex vivo		tissue uptake	0.04 %ID/g
O=C(c1ccc(Cl)cc1)N1CCN2C(=O)N(OC(=O)N3CCOc4ccccc43)C(=O)C2C1 (stereo not drawn)	Actin, cytoplasmic 1 (ACTB, Homo sapiens, UniProt P60709)	MS-based ABPP	SW-620 conditioned medium	10 µM	relative to: compound over DMSO, lower = more inhibition	mean protein ratio	1.05
COc1cc(C(=O)N2CC[C@@H](O)[C@@H](N)C2)cc2nc(-c3cc4ccccc4n3CC3CC3)n(C)c12	Mu-type opioid receptor (OPRM1, Homo sapiens, UniProt P35372)	antagonist, GTPγS binding				IC50	> 100 µM
CC(C)[C@@H]1NC(=O)[C@H](Cc2ccccc2)NC(=O)[C@@H]2NC(=O)[C@H](Cc3ccccc3)NC(=O)[C@@H]3CCCN3C(=O)CNC(=O)[C@H](Cc3ccccc3)NC(=O)[C@@H]3CNCCCC[C@@H](C(=O)O)NC(=O)[C@@H]4NC(=O)[C@H](CC(N)=O)NC(=O)CNC(=O)[C@H]([C@@H](O)C(=O)O)NC(=O)[C@H](CSC[C@@H](NC(=O)[C@H](CCC(N)=O)NC(=O)[C@H](CCCCNC(=O)c5ccc(NN)nc5)NC(=O)[C@@H](N)CS[C@H]4C)C(=O)N[C@@H](CS[C@H]2C)C(=O)N3)NC1=O [technetium-99m labelled]			rat 45 min ischemia, 2 h reperfusion, normal myocardium			half-life	14.6 min
O=S(=O)(F)Cc1ccccc1	Pimeloyl-[acyl-carrier protein] methyl ester esterase (bioH, Escherichia coli, UniProt P13001)	inhibitor				IC50	1780 µM
Cc1ccc2sc(NC(=O)c3cc4ccccc4o3)nc2n1	Genome polyprotein NS2B-NS3 protease	inhibitor				IC50	1.1 ± 0.1 µM
O=C(O)[C@@H]1Cc2c([nH]c3ccccc23)[C@@H](c2ccc(Cl)cc2Cl)N1	MEP cytidylyltransferase IspD (Plasmodium vivax, UniProt A5K9U5)	enzyme activity, inhibitor		with: 50 µM CTP		IC50	0.31 µM
C[C@@H](O)[C@@H](CO)NC(=O)[C@@H](CCCNC(=N)N)NC(=O)[C@@H]1CCCN1C(=O)[C@@H]1CSSC[C@H](NC(=O)[C@H](Cc2ccccc2)NC(=O)CN2CCN(CC(=O)O)CCN(CC(=O)O)CCN(CC(=O)O)CC2)C(=O)N[C@@H](Cc2ccc(O)cc2)C(=O)N[C@@H](Cc2ccccc2)C(=O)N[C@@H](CCC(N)=O)C(=O)N[C@@H](CC(N)=O)C(=O)N1 [gallium-68 labelled]			human serum	4 h, 37 °C		radiochemical purity	> 98%
C#C[C@]1(O)CC[C@H]2[C@@H]3CCc4cc(OC)ccc4[C@H]3CC[C@@]21C	Glucocorticoid receptor (NR3C1, Homo sapiens, UniProt P04150)					IC50	0.516 µM

For quick reference, copied from above:
SMILES	tested on	assay	system	conditions	how to read	measurement	value
O=C1c2ccccc2C(c2ccccc2)C(=O)N1OCc1ccccc1 (stereo not drawn)	Tripartite terminase subunit 3 C-terminal nuclease domain	endonuclease activity, inhibitor		with: dsDNA substrate		IC50	> 20 µM
N=C(N)NCCC[C@H](N)C(=O)N[C@@H](CCCCN)C(=O)N1CCC[C@H]1C(=O)NCC(=O)N[C@@H](CCC(=O)O)C(=O)N[C@@H](CO)C(=O)N[C@@H](CCC(=O)O)C(=O)N[C@@H](CCC(=O)O)C(=O)O	DDB1/DCAF12	binding, TR-FRET competition				IC50	0.771 µM
CC(C)(C)NCc1ccc(Nc2ccnc3cc(Cl)ccc23)cc1O	Vero-E6	CellTiter-Glo ATP		72 h, second round 5-point	relative to: DMSO 0%, hyamine -100%, more negative, more toxic	maximum response	-19.5%
CC[C@H](C)[C@H](NC(=O)[C@@H](N)CC(=O)O)C(=O)N[C@@H](CCCNC(=N)N)C(=O)N[C@@H](CCCCN)C(=O)N1CCC[C@H]1C(=O)NCC(=O)N[C@@H](CCC(=O)O)C(=O)N[C@@H](CO)C(=O)N[C@@H](CCC(=O)O)C(=O)N[C@@H](C)C(=O)O	DDB1/DCAF12	binding, TR-FRET competition				IC50	6.21 µM
C[C@@H]1CC[C@H]2[C@@H](C)C(=O)O[C@@H]3O[C@@]4(C)CC[C@@H]1[C@]32OO4	MT-CYB, bc1 complex (Plasmodium falciparum, UniProt Q02768)	enzyme activity, inhibitor				IC50	> 1 µM
C=CC(O)CO (stereo not drawn)	Cytochrome P450 2E1 (Cyp2e1, Mus musculus, UniProt Q05421)	4-nitrophenol hydroxylation, inhibitor	B6C3F1 mouse, liver microsomes	30 min, with: 4-nitrophenol 50 µM		IC50	1200 µM
